# Assay results pooled from the literature.
# Every numbered part comes from another study and shows a few of its results, in no order. Substitutions count along the parent as printed.

# Block 1
# Target: Interferon regulatory factor 5, full length, phosphomimetic (IRF5, Homo sapiens, UniProt Q13568-2, residues 1-514, K96S/S451D/S453D/S456D/S462D)
# Technique: protein-binding microarray
# Form: double-stranded DNA, one strand shown
# Matrix: in vitro
# Concentration: 250 nM
# Setting: 60-bp whole probe
# Together with: salmon DNA 0.4 mg/ml
# Baseline: random background probes
# Direction: higher = stronger binding
# All sequences stand within: GCCTAGCAC … GTCTTGATTCGCTTGACGCTGCTG
Oligonucleotide,log fluorescence
GACGGTATCGGTATCGGGAAGTGCTAG,7.37 z-score
TTAGGTTCCGGGTATCGGTTAGTGCTA,4.07 z-score
TTAGTTATCCTTCTCCTTTAGTGCTAG,0.486 z-score
GGACAGTAATGGAGGTATAAGTGCTAG,-0.24 z-score
TTAGGTTTCGGTTCCGGTAAGTGCTAG,10.6 z-score
TCAGATCTCAGTTTCGATTAGTGCTAG,9.4 z-score
GACGGTTTCGGTCGCGGGACGTGCTAG,9.13 z-score
TTAGGACTGGGTCGCGGTTAGTGCTAG,-0.421 z-score
TTAAGTATCCTTTTCCTTTAGTGCTAG,1 z-score

# Block 2
# Target: Histone acetyltransferase KAT6A, winged helix 1, GST fusion (KAT6A, Homo sapiens, UniProt Q92794, residues 1-85)
# Technique: protein binding microarray
# Form: double-stranded DNA, one strand shown
# Matrix: in vitro
# Concentration: not given
# Setting: 8-mer, flanks averaged, mean of 2 arrays, mostly near background
# Baseline: not given
# Direction: higher = stronger binding
# Residues (chain): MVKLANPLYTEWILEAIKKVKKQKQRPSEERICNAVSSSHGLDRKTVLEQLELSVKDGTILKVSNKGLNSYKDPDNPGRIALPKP
Oligonucleotide,E-score
ACGTTACT,-0.0784
TAAATGTA,-0.0968
CTAAATTC,-0.131
TACATGAA,-0.0926
CTTGGACC,0.0446
CAGTCTAC,0.0734

# Block 3
# Target: ABI1, truncated, D143A, DHFR fusion (Arabidopsis thaliana)
# Technique: DHFR PCA, deep sequencing
# Matrix: yeast
# Setting: methotrexate growth selection, single substitutions
# Together with: (+)-ABA 0.11 µM
# Baseline: wild-type fitted maximum
# Direction: higher = stronger binding
# Starting sequence: PYL1, truncated, DHFR fusion (Arabidopsis thaliana); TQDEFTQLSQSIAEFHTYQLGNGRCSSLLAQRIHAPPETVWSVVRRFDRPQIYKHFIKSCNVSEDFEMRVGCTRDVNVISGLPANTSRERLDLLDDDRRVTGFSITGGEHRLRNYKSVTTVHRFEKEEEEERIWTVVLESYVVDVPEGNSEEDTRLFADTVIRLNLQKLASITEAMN
Change,relative binding score
E14M,10.4%
L91F,-1.77%
K126N,56.7%
V43P,-7.98%
S80P,-3.52%

# Other studies, line by line
Substance,target,assay,system,conditions,scale,quantity,result
"PhoQ, residues 284 288 289 292 302 303 SVHLDV","PhoP, residues 12 14 15 18 19 SMASL (Escherichia coli, UniProt P23836)","Sort-seq, measured: YFP reporter",E. coli,"PhoQ-PhoP variant library, together with: 10 µM Mg2+","baseline: high Mg2+ state, higher = stronger signaling",fold induction,8.29

# For quick reference, copied from above (block 2):
Oligonucleotide,E-score
CTAAATTC,-0.131
TACATGAA,-0.0926
